Experimental data gathered from unrelated publications.
Protocols differ between the studies behind these lines. ± marks the error that the study gave.

SMILES | assay | test system | setting | how to read | endpoint | value
O=C(Nc1ccccc1)C1CCN(C(=O)Oc2cccnc2)CC1 | adverse event reporting | healthy women | oral, 100 mg, 9 days |  | subjects with decreased appetite | 15.4%
Cc1ccc(OCCc2cccc(F)c2)c(C(N)=O)c1 |  | male CD-1 mouse liver microsomes | concentration not given, 5 min, pH 7.4 |  | metabolized fraction | 88%
CC(C)C[C@@H]1NC(=O)[C@H](CCCCN)NC(=O)[C@H](CC(N)=O)NC(=O)[C@H](CCCNC(=N)N)NC(=O)[C@H]([C@@H](C)O)NC(=O)[C@@H]2CSSC[C@@H]3NC(=O)[C@H]([C@@H](C)O)NC(=O)CNC(=O)CNC(=O)[C@H](C(C)C)NC(=O)[C@@H]4CSSC[C@H](NC(=O)[C@H]([C@@H](C)O)NC(=O)[C@H](CSSC[C@H](NC(=O)[C@H](C(C)C)NC(=O)[C@@H]5CCCN5C1=O)C(=O)NCC(=O)N[C@@H](CCC(=O)O)C(=O)N[C@@H]([C@@H](C)O)C(=O)N4)NC(=O)CNC(=O)[C@@H]1CCCN1C(=O)[C@H]([C@@H](C)O)NC(=O)[C@H](CC(N)=O)NC3=O)C(=O)N[C@@H](CO)C(=O)N[C@@H](Cc1c[nH]c3ccccc13)C(=O)N1CCC[C@H]1C(=O)N[C@@H](C(C)C)C(=O)N2 | HPLC | water | 180 µM, 14 days, 37 °C, deamidation stability |  | remaining peptide | 98.8 ± 0.2%
CN1CCN(c2ccc(Nc3nccc(-c4ccc([N+](=O)[O-])cc4)n3)cc2C(F)(F)F)CC1 |  | Danio rerio embryos | 5 µM, 5 d |  | toxicity | 67%
CCC[C@@](N)(CO)CCc1ccc(OCCCCCC(C)C)cc1 |  | dog, male hounds, plasma | oral capsule, 20 mg/kg, median |  | Tmax | 6 h
CN[C@H]1CC[C@@H](c2ccc(Cl)c(Cl)c2)c2ccccc21 |  | CD-1 mouse, male, plasma | intraperitoneal, 30 mg/kg |  | Tmax | 1 h
c1cc2ccc3ccc4ccc5cccc6c(c1)c2c3c4c56 |  | fresh water | 12 (unit not given), 20 °C, S30-1 sampler, 30 µm |  | log K(PDMS-water) | 5.47 ± 0.1
COc1cc2c(cc1OC)CN(CCc1ccc(NC(=O)c3cccc4c(=O)c5cccc(OC)c5[nH]c34)cc1)CC2 |  | CD-1 mouse, male, lung | intraperitoneal, 1 mg/kg |  | elimination rate constant | 2.42e-05 s⁻¹
O=C(O)CCC(CP(=O)(O)O)C(=O)O (stereo not shown) |  | processed derivatized rat plasma | 8 µg/mL, 18 h, 10 °C, autosampler, diluted 1:10 |  | measured concentration | 8.14 ± 0.47 µg/mL
O[C@H]1CCCN[C@@H]1CCCn1cnc2c(Cl)c(Cl)ccc21 |  | healthy CYP2D6 extensive/ultrarapid metabolizers, plasma | oral, 150 mg multiple doses |  | median Cmax,ss | 224 ng/mL
CC(C)N(CCc1c[nH]c2cccc(OC(=O)CCCC(=O)O)c12)C(C)C.Cl |  | male beagle dog, plasma | intravenous, 1 mg/kg |  | half-life | 0.255 h
C[C@@H]1OC(=O)NN=C1c1ccc(-c2ccc(F)cc2)c(C(F)(F)F)c1 | phase I trial, measured: Diarrhoea worst grade 1 | human patients | 5 mg loading then 0.25 mg daily |  | patients with adverse event | 0%
NC(=O)[C@H]1CCN(c2ncnc(N)c2F)C[C@@H]1N1CCC[C@@H](Nc2cc(Cl)cc(C(F)(F)F)c2)C1=O |  | B-cell malignancy patients | oral, 328 mg twice daily, dose |  | any grade ≥3 adverse event | 0%
COc1ncnn2ccc(-c3cnc4nc(C)n(Cc5nnc([C@@H](C)F)o5)c4c3)c12 |  | human | oral, dose not given, grade 4 |  | patients with nail discoloration | 0%
C[C@H]1COCCN1c1nc(NCc2cccnc2C(F)(F)F)c2cccnc2n1 |  | anaesthetized rat | intravenous, 10 mg/kg | relative to: control | BP change | 6.7%
N.N.[Cl][Pt][Cl] |  | nude mouse MCF7 xenograft | 5 mg/kg, day 4 |  | body weight | 17.1 ± 0.6 g
CCC(CC)(NC(=O)c1ccc(C2CC2)c(Cc2ccc(F)cc2)n1)C(=O)NCCOCCOCCNC(=O)c1ccc2c(c1)C(=O)OC21c2ccc(N)c(S(=O)(=O)O)c2Oc2c1ccc(N)c2S(=O)(=O)O |  | PBS | 100 nM, pH 7.4, 0.1% DMSO |  | fluorescence quantum yield | 77.1%
C[C@]1(CO)Cc2ncn(-c3ccc(C#N)c(Cl)c3)c2C(=O)O1 |  | human | concentration not given, European food-effect part |  | TEAE incidence | 25%
CCOc1cc(Oc2ccc(C(F)(F)F)cc2Cl)ccc1[N+](=O)[O-] |  | rat male | 0.8125 mg/kg, 8 days |  | final body weight | 145 ± 7.52 g
Clc1ccc(Cl)c(-c2cc(Cl)ccc2Cl)c1 |  | Sprague Dawley rat, thymus | intraperitoneal, 10 mg/kg |  | relative organ weight | 0.0028 g/g body weight

SMILES | assay | test system | setting | how to read | endpoint | value
CC(C)C[C@@H]1NC(=O)CNC(=O)[C@H](CC(N)=O)NC(=O)[C@H](CCCNC(=N)N)NC(=O)[C@H]([C@@H](C)O)NC(=O)[C@@H]2CSSC[C@@H]3NC(=O)[C@H]([C@@H](C)O)NC(=O)CNC(=O)CNC(=O)[C@H](C(C)C)NC(=O)[C@@H]4CSSC[C@H](NC(=O)[C@H]([C@@H](C)O)NC(=O)[C@H](CSSC[C@H](NC(=O)[C@H](C(C)C)NC(=O)[C@@H]5CCCN5C1=O)C(=O)NCC(=O)N[C@@H](CCC(=O)O)C(=O)N[C@@H]([C@@H](C)O)C(=O)N4)NC(=O)CNC(=O)[C@@H]1CCCN1C(=O)[C@H](CCCCN)NC(=O)[C@H](CC(N)=O)NC3=O)C(=O)N[C@@H](CO)C(=O)N[C@@H](Cc1c[nH]c3ccccc13)C(=O)N1CCC[C@H]1C(=O)N[C@@H](C(C)C)C(=O)N2 | HPLC | ammonium bicarbonate | 180 µM, 14 days, pH 9.0, 25 °C, deamidation stability |  | remaining peptide | 91.1 ± 0.6%
CN1CC[C@@H](c2c(O)cc(O)c3c(=O)cc(-c4ccc(C(F)(F)F)cc4Cl)oc23)[C@@H]1CO | measured: Neutropenia | relapsed B-cell malignancies or AML | oral, 100 mg, grade 3-4, continuous dosing |  | patients with adverse event | 0%
COc1cc2c(Oc3ccc4[nH]c(C)cc4c3F)ccnc2cc1OCC1(N)CC1 |  | paediatric recurrent refractory sarcoma | 8 mg |  | Headache incidence | 0%
O=C(O)CCS(=O)(=O)O |  | human, plasma | oral, 265 mg twice daily, steady state week 65 |  | MRT(0-inf) | 54.9 h
CC(C)(c1ccccc1)c1cc(-n2nc3ccccc3n2)c(O)c(C(C)(C)c2ccccc2)c1 |  | human aged 6-11 years | concentration not given, spray sunscreen, mean |  | daily dermal exposure dose | 9.9 ng/kg/day
COc1ccnc(C(=O)N[C@H]2COC(=O)[C@H](Cc3ccccc3)[C@@H](OC(=O)C(C)C)[C@H](C)OC2=O)c1OCOC(=O)C(C)C | soil adsorption | tested soils | geometric mean |  | KFoc | 5780 mL/g
Clc1ccc(-c2ccc(Cl)cc2Cl)cc1 |  | polyethylene-water partitioning | PCB compilation | relative to: maximum over minimum K | literature range factor | 1.3
CC1(C)[C@H](C(=O)O[C@H](C#N)c2cccc(Oc3ccccc3)c2)[C@@H]1C=C(Br)Br |  | pooled human liver microsomes |  |  | CLint | 0.892 mL/min/mg protein
CC(=O)c1c(C)c2cnc(Nc3ccc(N4CCNCC4)cn3)nc2n(C2CCCC2)c1=O |  | C57BL/6 mouse pups | intraperitoneal, dosed postnatal days P10 to P14 | weight gain reduced below controls | MTD | 10 mg/kg
C[C@]1(O)C[C@@](N)(c2ccc(-c3nc4n(c3-c3ccccc3)COc3ccncc3-4)cc2)C1 |  | human, advanced or metastatic solid tumours | intermittent, dose escalation total, any grade |  | patients with Nausea TEAE | 14.3%
C[C@@H](NC(=O)N1C(=O)[C@H](Cc2ccnc(N)c2)[C@H]1C(=O)O)C1CCCCC1 |  | healthy adult Chinese volunteers | continuous intravenous infusion, 2.25 mg/kg/h, 5-day infusion, CTCAE 5.0 grading |  | incidence of administration site extravasation | 0%
O=C(O)CCCOc1ccc(F)cc1-c1cc(-c2ccccc2C(F)(F)F)n(-c2ccccc2)n1 | measured: T-Cho | Crl:CD(SD) rats, female, blood | iv, 25 µg/kg, 1 day |  | blood chemistry | 67 ± 8.4 mg/dL
NCCCC[C@@H]1NC(=O)[C@@H](Cc2c[nH]c3ccccc23)NC(=O)[C@H](c2ccccc2)NC(=O)[C@@H]2C[C@@H](OC(=O)NCCN)CN2C(=O)[C@H](Cc2ccccc2)NC(=O)[C@H](Cc2ccc(OCc3ccccc3)cc2)NC1=O |  | healthy human volunteers | 1950 µg twice daily |  | subjects with any adverse event | 100%
CC[C@H](C)[C@H](NC(=O)[C@H](Cc1ccccc1)NC(=O)[C@H](CCC(=O)O)NC(=O)[C@H](CCCNC(=N)N)NC(=O)[C@H](C)NC(=O)[C@H](C)NC(=O)[C@H](CCC(N)=O)NC(=O)[C@H](CCC(=O)O)NC(=O)[C@H](CCC(=O)O)NC(=O)[C@H](CC(C)C)NC(=O)[C@H](Cc1ccc(O)cc1)NC(=O)[C@H](CO)NC(=O)[C@H](CO)NC(=O)[C@@H](NC(=O)[C@H](CC(=O)O)NC(=O)[C@H](CO)NC(=O)[C@@H](NC(=O)[C@H](Cc1ccccc1)NC(=O)[C@@H](NC(=O)CNC(=O)[C@H](CCC(=O)O)NC(=O)[C@H](C)NC(=O)CCc1cnc[nH]1)[C@@H](C)O)[C@@H](C)O)C(C)C)C(=O)N[C@@H](C)C(=O)N[C@@H](Cc1c[nH]c2ccccc12)C(=O)N[C@@H](CC(C)C)C(=O)N[C@H](C(=O)N[C@@H](CCCNC(=N)N)C(=O)NCC(=O)N[C@@H](CCCNC(=N)N)C(=O)N[C@@H](CCCCNC(=O)COCCOCCNC(=O)COCCOCCNC(=O)CC[C@H](NC(=O)CCCCCCCCCCCCCCCCC(=O)O)C(=O)O)C(=O)NCC(=O)NCC(=O)N[C@@H](CO)C(=O)N[C@@H](CCCCNC(=O)[C@H](CCCCNc1c(NCCCCCN(O)C(=O)CCC(=O)NCCCCCN(O)C(=O)CCC(=O)NCCCCCN(O)C(C)=O)c(=O)c1=O)Nc1c(NCCCCCN(O)C(=O)CCC(=O)NCCCCCN(O)C(=O)CCC(=O)NCCCCCN(O)C(C)=O)c(=O)c1=O)C(=O)O)C(C)C [zirconium-89 labelled] | ex vivo gamma counting | male Sprague-Dawley rat, knee | intravenous, 1 nmol, 24 h |  | tissue uptake | 0.389 %ID/g
CO[C@H]1C[C@@H]2CC[C@@H](C)[C@@](O)(O2)C(=O)C(=O)N2CCCC[C@H]2C(=O)O[C@H]([C@H](C)C[C@@H]2CC[C@@H](OC(=O)NCCOCCOCCOCCOCCOCCOCCOCCOCCC(=O)N3CCc4cc(Cn5nc(-c6ccc7oc(N)nc7c6)c6c(N)ncnc65)ccc4C3)[C@H](OC)C2)C[C@@H](O)[C@H](C)/C=C(\C)[C@@H](O)[C@@H](OC)C(=O)[C@H](C)C[C@H](C)/C=C/C=C/C=C/1C | phase 1 dose escalation, measured: neutropenia | advanced solid tumour patients | intravenous, 8 mg weekly, any grade |  | dose-reducing adverse events | 0%
O=C1Nc2cc3[nH]nc(-c4ccncc4)c3cc2CN1Cc1ccccc1 | CTCAE v4.03 | advanced solid tumour patients | intravenous, 9.6 mg/kg, schedules 1/2 |  | patients with acneiform dermatitis | 22%
c1cc2ccc3cccc4ccc(c1)c2c34 |  | fresh water | 12 (unit not given), 20 °C, S30-2 sampler, 30 µm |  | log K(PDMS-water) | 4.33
CCN1CCN(Cc2ccc(Nc3ncc(F)c(-c4cc(F)c5nc6n(c5c4)[C@H](C)CCC6)n3)nc2)CC1 |  | advanced solid tumour patients | Phase Ia monotherapy |  | Anemia incidence, any grade | 66.7%
Clc1cc(Cl)c(-c2cc(Cl)c(Cl)cc2Cl)cc1Cl |  | fresh water | 20 °C, S30-1 sampler, 30 µm |  | log K(PDMS-water) | 6.39 ± 0.06
O=C(Nc1ccccc1)C1CCN(C(=O)Oc2cccnc2)CC1 | measured: memory impairment | healthy female humans | concentration not given, safety set, all doses pooled |  | TEAE incidence | 13%

Excerpt of the above:
SMILES | assay | test system | setting | how to read | endpoint | value
Clc1cc(Cl)c(-c2cc(Cl)c(Cl)cc2Cl)cc1Cl |  | fresh water | 20 °C, S30-1 sampler, 30 µm |  | log K(PDMS-water) | 6.39 ± 0.06
C[C@@H](NC(=O)N1C(=O)[C@H](Cc2ccnc(N)c2)[C@H]1C(=O)O)C1CCCCC1 |  | healthy adult Chinese volunteers | continuous intravenous infusion, 2.25 mg/kg/h, 5-day infusion, CTCAE 5.0 grading |  | incidence of administration site extravasation | 0%
CCC(CC)(NC(=O)c1ccc(C2CC2)c(Cc2ccc(F)cc2)n1)C(=O)NCCOCCOCCNC(=O)c1ccc2c(c1)C(=O)OC21c2ccc(N)c(S(=O)(=O)O)c2Oc2c1ccc(N)c2S(=O)(=O)O |  | PBS | 100 nM, pH 7.4, 0.1% DMSO |  | fluorescence quantum yield | 77.1%
NC(=O)[C@H]1CCN(c2ncnc(N)c2F)C[C@@H]1N1CCC[C@@H](Nc2cc(Cl)cc(C(F)(F)F)c2)C1=O |  | B-cell malignancy patients | oral, 328 mg twice daily, dose |  | any grade ≥3 adverse event | 0%
Cc1ccc(OCCc2cccc(F)c2)c(C(N)=O)c1 |  | male CD-1 mouse liver microsomes | concentration not given, 5 min, pH 7.4 |  | metabolized fraction | 88%
O=C(O)CCC(CP(=O)(O)O)C(=O)O (stereo not shown) |  | processed derivatized rat plasma | 8 µg/mL, 18 h, 10 °C, autosampler, diluted 1:10 |  | measured concentration | 8.14 ± 0.47 µg/mL
